Measured values collected from several papers.
Parts stem from different laboratories: compare values within a part only.
Chain of UniProt P07948 (whole entry, looked up): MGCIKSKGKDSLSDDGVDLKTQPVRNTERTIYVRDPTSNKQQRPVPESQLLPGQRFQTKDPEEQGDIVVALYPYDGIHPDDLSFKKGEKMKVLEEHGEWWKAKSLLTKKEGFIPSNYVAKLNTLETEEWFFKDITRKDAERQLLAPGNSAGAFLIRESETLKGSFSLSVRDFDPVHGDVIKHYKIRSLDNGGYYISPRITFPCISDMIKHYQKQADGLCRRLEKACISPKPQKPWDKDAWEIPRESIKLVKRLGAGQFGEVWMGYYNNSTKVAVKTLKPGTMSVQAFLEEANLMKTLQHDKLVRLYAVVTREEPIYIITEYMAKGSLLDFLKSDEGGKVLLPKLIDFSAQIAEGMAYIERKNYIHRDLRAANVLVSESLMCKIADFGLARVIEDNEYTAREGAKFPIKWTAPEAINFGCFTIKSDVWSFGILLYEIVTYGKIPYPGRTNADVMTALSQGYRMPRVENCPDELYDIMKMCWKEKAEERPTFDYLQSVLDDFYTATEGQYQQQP
Chain of UniProt Q15349 (whole entry, looked up): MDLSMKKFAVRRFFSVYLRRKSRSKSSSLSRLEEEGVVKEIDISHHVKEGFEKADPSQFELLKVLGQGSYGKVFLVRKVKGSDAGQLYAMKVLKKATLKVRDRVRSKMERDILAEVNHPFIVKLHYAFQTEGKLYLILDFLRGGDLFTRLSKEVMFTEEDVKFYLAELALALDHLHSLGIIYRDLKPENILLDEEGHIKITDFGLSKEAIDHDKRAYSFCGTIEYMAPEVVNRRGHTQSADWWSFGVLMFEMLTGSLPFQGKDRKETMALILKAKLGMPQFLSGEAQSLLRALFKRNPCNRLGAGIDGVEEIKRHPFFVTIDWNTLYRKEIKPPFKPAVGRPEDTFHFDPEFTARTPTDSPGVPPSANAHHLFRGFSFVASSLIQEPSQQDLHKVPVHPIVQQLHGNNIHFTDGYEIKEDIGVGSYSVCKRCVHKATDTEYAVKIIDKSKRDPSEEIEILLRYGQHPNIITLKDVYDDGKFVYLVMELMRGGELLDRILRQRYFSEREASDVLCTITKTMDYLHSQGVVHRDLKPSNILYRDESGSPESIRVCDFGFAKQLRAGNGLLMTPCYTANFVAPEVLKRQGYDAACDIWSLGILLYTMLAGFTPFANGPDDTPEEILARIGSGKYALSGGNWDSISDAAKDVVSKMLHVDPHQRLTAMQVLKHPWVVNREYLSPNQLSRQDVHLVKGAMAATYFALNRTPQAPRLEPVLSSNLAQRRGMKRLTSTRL
Chain of UniProt Q5S007 (whole entry, looked up): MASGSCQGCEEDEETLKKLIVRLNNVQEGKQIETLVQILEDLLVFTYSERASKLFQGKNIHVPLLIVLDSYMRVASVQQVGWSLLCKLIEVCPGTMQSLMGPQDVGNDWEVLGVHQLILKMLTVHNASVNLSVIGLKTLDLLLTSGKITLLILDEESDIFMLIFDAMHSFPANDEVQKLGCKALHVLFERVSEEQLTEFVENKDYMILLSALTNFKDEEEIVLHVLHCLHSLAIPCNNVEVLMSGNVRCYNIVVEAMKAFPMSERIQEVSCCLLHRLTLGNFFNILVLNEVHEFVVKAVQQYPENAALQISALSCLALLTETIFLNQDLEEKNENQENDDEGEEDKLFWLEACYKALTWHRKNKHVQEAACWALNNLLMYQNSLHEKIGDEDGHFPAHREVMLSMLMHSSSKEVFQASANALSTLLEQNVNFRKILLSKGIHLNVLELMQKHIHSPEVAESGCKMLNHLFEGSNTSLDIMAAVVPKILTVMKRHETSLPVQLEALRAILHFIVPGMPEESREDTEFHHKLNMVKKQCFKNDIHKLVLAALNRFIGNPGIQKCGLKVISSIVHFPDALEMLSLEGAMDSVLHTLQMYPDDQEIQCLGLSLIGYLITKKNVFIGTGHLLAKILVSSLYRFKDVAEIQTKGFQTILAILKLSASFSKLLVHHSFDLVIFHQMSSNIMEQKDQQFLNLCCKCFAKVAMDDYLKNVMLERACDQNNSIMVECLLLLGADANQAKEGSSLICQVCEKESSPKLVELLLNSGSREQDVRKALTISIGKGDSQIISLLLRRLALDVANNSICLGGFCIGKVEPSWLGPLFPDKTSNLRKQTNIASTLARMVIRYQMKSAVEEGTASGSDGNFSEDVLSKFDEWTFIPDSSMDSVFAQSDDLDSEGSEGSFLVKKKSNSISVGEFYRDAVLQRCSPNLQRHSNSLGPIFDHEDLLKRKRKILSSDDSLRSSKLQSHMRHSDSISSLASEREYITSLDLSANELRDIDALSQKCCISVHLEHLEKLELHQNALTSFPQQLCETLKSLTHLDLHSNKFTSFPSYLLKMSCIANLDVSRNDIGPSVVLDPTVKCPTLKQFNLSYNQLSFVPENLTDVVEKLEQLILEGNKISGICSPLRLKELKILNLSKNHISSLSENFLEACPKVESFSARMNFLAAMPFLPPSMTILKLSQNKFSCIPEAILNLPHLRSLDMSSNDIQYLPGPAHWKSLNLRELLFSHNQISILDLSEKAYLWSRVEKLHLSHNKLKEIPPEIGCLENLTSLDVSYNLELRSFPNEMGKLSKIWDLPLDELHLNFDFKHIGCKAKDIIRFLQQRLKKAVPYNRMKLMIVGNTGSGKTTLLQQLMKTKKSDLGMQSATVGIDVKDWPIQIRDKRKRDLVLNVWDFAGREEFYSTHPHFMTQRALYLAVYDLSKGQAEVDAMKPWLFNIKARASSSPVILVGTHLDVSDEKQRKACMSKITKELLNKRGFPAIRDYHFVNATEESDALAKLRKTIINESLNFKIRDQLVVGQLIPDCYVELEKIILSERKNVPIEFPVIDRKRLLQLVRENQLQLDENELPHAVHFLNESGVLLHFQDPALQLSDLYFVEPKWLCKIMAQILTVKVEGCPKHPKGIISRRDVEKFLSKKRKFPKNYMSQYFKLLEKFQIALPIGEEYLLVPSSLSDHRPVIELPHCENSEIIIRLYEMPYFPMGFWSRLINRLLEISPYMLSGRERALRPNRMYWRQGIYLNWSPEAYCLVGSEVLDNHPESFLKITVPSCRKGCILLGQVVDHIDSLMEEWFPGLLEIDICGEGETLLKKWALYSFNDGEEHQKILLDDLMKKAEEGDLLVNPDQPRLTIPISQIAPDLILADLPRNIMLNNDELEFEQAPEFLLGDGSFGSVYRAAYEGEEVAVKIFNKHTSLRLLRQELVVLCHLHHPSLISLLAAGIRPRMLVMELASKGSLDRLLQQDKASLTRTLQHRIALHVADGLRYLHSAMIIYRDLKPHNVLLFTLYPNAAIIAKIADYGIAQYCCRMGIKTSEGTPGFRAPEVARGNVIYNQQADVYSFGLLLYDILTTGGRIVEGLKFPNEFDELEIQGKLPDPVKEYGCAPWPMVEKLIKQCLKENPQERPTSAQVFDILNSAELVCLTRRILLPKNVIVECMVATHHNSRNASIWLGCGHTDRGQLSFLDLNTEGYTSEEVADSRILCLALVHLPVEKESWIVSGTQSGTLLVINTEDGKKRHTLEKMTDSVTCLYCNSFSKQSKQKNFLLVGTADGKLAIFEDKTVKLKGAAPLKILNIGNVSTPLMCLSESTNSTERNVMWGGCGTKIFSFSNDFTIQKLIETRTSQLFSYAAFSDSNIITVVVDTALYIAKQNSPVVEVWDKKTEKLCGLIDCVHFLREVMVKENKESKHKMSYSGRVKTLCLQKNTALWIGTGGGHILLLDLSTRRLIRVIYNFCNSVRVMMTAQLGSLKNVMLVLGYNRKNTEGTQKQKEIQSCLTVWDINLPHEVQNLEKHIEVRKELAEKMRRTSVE
Chain of UniProt O14757 (whole entry, looked up): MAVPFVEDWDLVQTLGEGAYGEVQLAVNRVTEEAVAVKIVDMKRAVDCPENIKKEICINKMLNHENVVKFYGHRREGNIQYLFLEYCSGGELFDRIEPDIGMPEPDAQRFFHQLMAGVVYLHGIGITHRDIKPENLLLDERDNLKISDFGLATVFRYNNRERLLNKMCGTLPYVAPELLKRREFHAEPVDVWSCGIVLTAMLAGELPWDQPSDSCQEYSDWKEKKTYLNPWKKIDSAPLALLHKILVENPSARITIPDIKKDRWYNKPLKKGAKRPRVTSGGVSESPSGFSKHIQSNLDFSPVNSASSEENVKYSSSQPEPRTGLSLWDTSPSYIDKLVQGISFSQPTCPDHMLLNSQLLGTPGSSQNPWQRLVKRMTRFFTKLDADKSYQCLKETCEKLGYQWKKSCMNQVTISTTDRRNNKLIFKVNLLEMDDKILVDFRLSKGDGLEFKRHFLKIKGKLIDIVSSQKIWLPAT
Chain of UniProt P41743 (whole entry, looked up): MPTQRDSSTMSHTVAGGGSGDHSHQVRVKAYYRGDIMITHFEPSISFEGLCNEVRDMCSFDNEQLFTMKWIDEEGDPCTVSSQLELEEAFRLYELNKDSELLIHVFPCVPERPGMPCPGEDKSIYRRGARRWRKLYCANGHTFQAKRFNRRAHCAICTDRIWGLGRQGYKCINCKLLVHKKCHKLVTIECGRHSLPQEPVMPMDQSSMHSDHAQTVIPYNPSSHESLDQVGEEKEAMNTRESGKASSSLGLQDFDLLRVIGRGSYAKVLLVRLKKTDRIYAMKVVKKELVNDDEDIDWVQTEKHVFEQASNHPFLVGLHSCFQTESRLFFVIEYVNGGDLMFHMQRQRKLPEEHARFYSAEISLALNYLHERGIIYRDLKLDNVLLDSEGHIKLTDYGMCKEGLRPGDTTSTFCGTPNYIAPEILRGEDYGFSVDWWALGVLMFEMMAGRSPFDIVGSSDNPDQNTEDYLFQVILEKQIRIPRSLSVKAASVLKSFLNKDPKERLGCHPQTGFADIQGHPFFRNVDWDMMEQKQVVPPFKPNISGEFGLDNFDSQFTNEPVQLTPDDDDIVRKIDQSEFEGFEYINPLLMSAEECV

Series 1
Host: mouse
Matrix: microsomes or S9
Tested at: 2 µM
Time: 0.5 h
Compound | remaining compound
CCOC(=O)Cc1cc(=O)n2nc(Cc3ccccc3)c(-c3ccccc3)c2[nH]1 | < 1%
CC(c1cncs1)N(C)C(=O)c1cnn(C(C)C)c1 (stereo not drawn) | 40.8%
CC(C)c1nc(CN(C)Cc2cnc(N(C)C)nc2)cs1 | 0.0164%
CCCN(CCC)S(=O)(=O)c1cc2c(cc1Cl)Oc1ccc(C)cc1NC2=O | < 1%
Cc1cc(Oc2ccc(-n3cncn3)cc2)nc(C)n1 | 59%
COC(=O)c1ccc(C(=O)N2CCN(C(C)=O)N(C(=O)C[C@@H](Cc3cc(F)c(F)cc3F)NC(=O)OC(C)(C)C)CC2)cc1 | 18.4%
c1ccc(-c2oc3ncn4ncnc4c3c2-c2ccccc2)cc1 | 81.8%
CCc1ccc(/N=c2\ncc3c([nH]2)CC(c2ccc(OC)cc2)CC3=O)cc1 (stereo not drawn) | 95.1%
CCOc1ccc(-c2nc(C)c(C(C)=O)n2O)cc1 | 82.5%

Series 2
Compound: CC(C)[C@H](CO)Nc1nc(Nc2cccc(Cl)c2)c2ncn(C(C)C)c2n1
Read-out: enzyme activity
Action: inhibitor
Tested at: 0.5 µM
Baseline: control
target | remaining activity [%]
LYN (Homo sapiens, UniProt P07948) | 60.2
WNK2 (Homo sapiens, UniProt Q9Y3S1) | 92.4
PLK2 (Homo sapiens, UniProt Q9NYY3) | 102
KIT (Homo sapiens, UniProt P10721) | 91
Cyclin-dependent kinase 9, with cyclin T1 (CDK9, Homo sapiens, UniProt P50750) | 65
PRKCI (Homo sapiens, UniProt P41743) | 96.6
MAP3K10 (Homo sapiens, UniProt Q02779) | 98
NEK4 (Homo sapiens, UniProt P51957) | 94.4
IRAK4 (Homo sapiens, UniProt Q9NWZ3) | 88.6
CSNK1A1 (Homo sapiens, UniProt P48729) | 91.8
CHEK1 (Homo sapiens, UniProt O14757) | 97.9
EPHA5 (Homo sapiens, UniProt P54756) | 87.9
MKNK2 (Homo sapiens, UniProt Q9HBH9) | 87.5
MAPK12 (Homo sapiens, UniProt P53778) | 106
LRRK2 (Homo sapiens, UniProt Q5S007) | 77.7
PRKG1 (Homo sapiens, UniProt Q13976) | 71.4

Series 3
Compound: Cc1nc(C2CCN(C(=O)c3ccc(OC(F)(F)F)cc3N)CC2)c2ncc(N3CCN(C)CC3)cc2n1
Tested at: 1 µM
target | assay | remaining binding
MAP2K1 (Homo sapiens, UniProt Q02750) | cell-free assay, competition with immobilised ligand | 85%
SBK1 (Homo sapiens, UniProt Q52WX2) | cell-free assay, competition with immobilised ligand | 40%
AAK1 (Homo sapiens, UniProt Q2M2I8) | binding | 100%
MARK4 (Homo sapiens, UniProt Q96L34) | cell-free assay, competition with immobilised ligand | 100%
Ribosomal protein S6 kinase alpha-2, N-terminal kinase domain (RPS6KA2, Homo sapiens, UniProt Q15349) | cell-free assay, competition with immobilised ligand | 100%
EGFR (Homo sapiens, UniProt P00533, del747-750/T751S) | cell-free assay, competition with immobilised ligand | 91%
MET (Homo sapiens, UniProt P08581, Y1235D) | cell-free assay, competition with immobilised ligand | 98%
CSNK1A1L (Homo sapiens, UniProt Q8N752) | cell-free assay, competition with immobilised ligand | 100%
Aurora kinase C (AURKC, Homo sapiens, UniProt Q9UQB9) | cell-free assay, competition with immobilised ligand | 100%
CDK13 (Homo sapiens, UniProt Q14004) | cell-free assay, competition with immobilised ligand | 88%
PIK3CA (Homo sapiens, UniProt P42336, E542K) | cell-free assay, competition with immobilised ligand | 92%
Tyrosine-protein kinase ABL1, non-phosphorylated (ABL1, Homo sapiens, UniProt P00519, F317L) | cell-free assay, competition with immobilised ligand | 96%
FLT3 (Homo sapiens, UniProt P36888, D835H) | cell-free assay, competition with immobilised ligand | 69%
FLT3 (Homo sapiens, UniProt P36888, D835V/ITD) | cell-free assay, competition with immobilised ligand | 86%
TTK (Homo sapiens, UniProt P33981) | cell-free assay, competition with immobilised ligand | 100%
CDK19 (Homo sapiens, UniProt Q9BWU1) | competition binding | 86%
NEK5 (Homo sapiens, UniProt Q6P3R8) | cell-free assay, competition with immobilised ligand | 100%
EPHA7 (Homo sapiens, UniProt Q15375) | cell-free assay, competition with immobilised ligand | 92%

Series 4
Cell line: A-375
Tested at: 100 µM
Time: 18 h
Compound | viability
Cc1cc(C(C)(C)C)c(O)c(C)c1CC1=NCCN1 | 93.8%
CCOC(=O)C1=C(COCCN)NC(C)=C(C(=O)OC)[C@@H]1c1ccccc1Cl | 8.39%
CCCCCCCCOc1ccccc1C(=O)Nc1ccc(C(=O)OCC[N+](C)(CC)CC)cc1 | 8.21%
Nc1ccccc1S(N)(=O)=O | 97.5%
CC(=O)OCC(=O)[C@@]12OC3(CCCC3)O[C@@H]1C[C@H]1[C@@H]3CCC4=CC(=O)C=C[C@]4(C)[C@@]3(F)[C@@H](O)C[C@@]12C | 69.9%

A few entries again (series 2):
target | remaining activity [%]
CSNK1A1 (Homo sapiens, UniProt P48729) | 91.8
EPHA5 (Homo sapiens, UniProt P54756) | 87.9
PLK2 (Homo sapiens, UniProt Q9NYY3) | 102
MKNK2 (Homo sapiens, UniProt Q9HBH9) | 87.5
MAPK12 (Homo sapiens, UniProt P53778) | 106
